Measured values from different studies.
“And” joins repeats or separate records; there may be more than shown. Numbers after ± are the reported error.

Compound | assay | test system | conditions | plasma concentration
C[C@H](CCC(=O)O[C@@H]1O[C@H](C(=O)O)[C@@H](O)[C@H](O)[C@H]1O)[C@H]1CC[C@H]2[C@@H]3[C@H](O)C[C@@H]4C[C@H](O)CC[C@]4(C)[C@H]3CC[C@]12C |  | healthy human volunteers, plasma | dose not given, 0 h, baseline phase, no drug | 20.1 ± 2.4 nM
CN1CCN(c2ccc(OC(F)(F)F)c(Nc3ncc4c(n3)-c3c(c(C(N)=O)nn3CCO)CC4)c2)CC1 | LC-MS/MS | human, plasma | oral, 12 mg/m2, 0 h post-dose | 16.8 ng/mL and 23.7 ng/mL and 39.5 ng/mL and 41.4 ng/mL and 33.7 ng/mL and 47.4 ng/mL
CO[C@H]1/C=C/O[C@@]2(C)Oc3c(C)c(O)c4c(O)c(c(/C=N/N5CCN(C)CC5)c(O)c4c3C2=O)NC(=O)/C(C)=C\C=C\[C@H](C)[C@H](O)[C@@H](C)[C@@H](O)[C@@H](C)[C@H](OC(C)=O)[C@@H]1C |  | healthy male humans, plasma | oral, dose not given, 2 h, with cocktail | 8810 ng/mL
C[C@H](CCC(=O)O)[C@H]1CC[C@H]2[C@@H]3[C@H](O)C[C@@H]4C[C@H](O)CC[C@]4(C)[C@H]3CC[C@]12C |  | healthy human volunteers, plasma | dose not given, 0 h, baseline phase, no drug | 797 ± 194 nM
N#Cc1ccc(C(c2ccc(C#N)cc2)n2cncn2)cc1 |  | human patients, plasma | oral, 10 mg daily, day of surgery | 114 ± 28.5 ng/mL
O=C(Nc1cnccc1Cl)N1CCN(Cc2ccc3c(c2)OC(F)(F)O3)CC1 |  | human, plasma | 10 mg once daily, 24 h post dose day 7 | 4.64 ng/mL and 8.63 ng/mL
Cn1c(=O)[nH]c2ncn(C)c2c1=O |  | human, both sexes, plasma | mean | 14300 nM
CC1(C)CCC(CN2CCN(c3ccc(C(=O)NS(=O)(=O)c4ccc(NCC5CCOCC5)c([N+](=O)[O-])c4)c(Oc4cnc5[nH]ccc5c4)c3)CC2)=C(c2ccc(Cl)cc2)C1 | UPLC-MS/MS | human patients, responders | oral, dose not given, 6 h post-dose, steady state, median | 2060 ng/mL
C[C@H](CCC(=O)NCC(=O)O)[C@H]1CC[C@H]2[C@@H]3CC[C@@H]4C[C@H](O)CC[C@]4(C)[C@H]3CC[C@]12C |  | healthy human volunteers, plasma | dose not given, 0 h, baseline phase, no drug | 13.3 ± 3.3 nM
COc1cc2c(cc1OC)CN(CCc1ccc(NC(=O)c3cc(OC)c(OC)cc3NC(=O)c3cnc4ccccc4c3)cc1)CC2 |  | human, plasma | intravenous infusion, 5.9 mg/kg, 123 min | 4110 nM and 3760 nM and 2830 nM
C[C@H](CCC(=O)NCC(=O)O)[C@H]1CC[C@H]2[C@@H]3CC[C@@H]4C[C@H](O)CC[C@]4(C)[C@H]3C[C@H](O)[C@]12C |  | healthy human volunteers, plasma | dose not given, 0 h, baseline phase, no drug | 160 ± 48 nM
Cn1cnc2[nH]c(=O)[nH]c(=O)c21 |  | human, both sexes, plasma | median | 4710 nM

Some of these lines once more:
Compound | assay | test system | conditions | plasma concentration
C[C@H](CCC(=O)NCC(=O)O)[C@H]1CC[C@H]2[C@@H]3CC[C@@H]4C[C@H](O)CC[C@]4(C)[C@H]3CC[C@]12C |  | healthy human volunteers, plasma | dose not given, 0 h, baseline phase, no drug | 13.3 ± 3.3 nM
